Results gathered from unrelated publications.
Each numbered part is a random draw from the data of one study; scales do not carry over between parts. Positions count from the first letter of the parent shown.

Study 1
Target: RING finger protein unkempt homolog, zinc fingers 1-6, GST-SBP tag (UNK, Homo sapiens, UniProt Q9C0B0, residues 30-357)
UniProt Q9C0B0, sequence (30-357, looked up): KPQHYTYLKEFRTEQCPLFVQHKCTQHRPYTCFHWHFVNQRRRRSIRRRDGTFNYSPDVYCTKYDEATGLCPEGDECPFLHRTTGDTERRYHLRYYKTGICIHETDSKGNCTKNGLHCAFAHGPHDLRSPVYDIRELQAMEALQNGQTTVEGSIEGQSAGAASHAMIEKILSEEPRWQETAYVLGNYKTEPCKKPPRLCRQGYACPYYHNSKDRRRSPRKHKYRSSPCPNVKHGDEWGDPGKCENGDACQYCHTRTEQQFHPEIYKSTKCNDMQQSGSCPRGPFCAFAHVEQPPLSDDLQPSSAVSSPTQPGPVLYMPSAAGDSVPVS
Method: RNA Bind-n-Seq
Form: RNA
Medium: in vitro
Tested at: not given
Setting: RNA with constant flanks, ends assumed
Reference: input RNA pool
Direction: higher = stronger binding
Quantity: bound/input enrichment
Constant ends, left off below: GGGAGUUCUACAGUCCGACGAUC … CAACAGAGGAUUGAGCAUCA
ACCCUGGAAGAGGAGACCGUGAUGCUUGCAAUGACUCCAGAUGAUUUGCAGGAGAAGGAAGCCGCUUAUUGUUCUACCUACACCCACUGUGAGAUUCACCCAUCAAUGAUUCUUGGAGUC: 0.153 ratio
AGACGAAGCUAUGGAGAUAUUUUGCAUAGAAUGAAGGAUCUCUGCAGAUACAUGAACAACUUUGACCGUGAAGCACAUGCAAAAUAUAAAAACCAAGUGGUGUAUUCCACCAUGCUGGUC: 0.104 ratio
CUGAUAGUCCUAGCAAUUGAUCACAAAAGGAGGCUCACAGCAUGUAAAUUCUCUGGUCUUUACCGCGUUCACCUGGAAUGGACGACCCUUUUUUUUUUCCUUUGCCUUCUACUUAUUUCU: 0.994 ratio
AAGAUUCACCAAGAAACCUUUGGCAAGAGUGGAUGCCGUCGCAUCGUUCCUGGCCAGUUCUCCGCUGUGGAUCCCAAAGGGCGAGCCGUUAUGAUUAGUGCCAUUGAGAAACAGAAAUUG: 0.326 ratio
AAGGGUAAUUAUUCGGAGCGGGUCGGCGCUGGUGCCCCGGUGUACCUGGCGGCUGUGCCCGAAUAUCUGACUGCUGAGAUCCUGGAAUUGGCUGGUAAUGCGGCCCGCGACAAUAAGAAG: 0.143 ratio

Study 2
Target: RNA binding protein fox-1 homolog 2, RRM domain, GST-SBP tag (RBFOX2, Homo sapiens, UniProt O43251-10, residues 100-194)
Method: RNA Bind-n-Seq
Form: RNA
Medium: in vitro
Tested at: 365 nM
Setting: natural RNA segment, single round, ends assumed
Reference: no-protein control
Direction: higher = stronger binding
Quantity: RBNS enrichment (R)
Constant ends, left off below: GGGAGUUCUACAGUCCGACGAUC … UGGAAUUCUCGGGUGCCAA
Target sequence (chain): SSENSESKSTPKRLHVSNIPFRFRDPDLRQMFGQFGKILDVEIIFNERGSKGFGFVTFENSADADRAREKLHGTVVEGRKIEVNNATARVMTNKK
UGCUCUUCCCCAAGGAACUGCUCCCACCUCAGCACGUGGAGGCCUCUCACGGUCCUCCUUCCUGGGACCUGAGCAGGUUUGGUGAAAGCCACCGUCCUCCGUGACACACG: 0.299
UCCCUUCUGCUUGUCCCAAAUCCGCCAGUGUUUCUGAAUGUUUGUGUCUGUGGUUGCAGUCUUUCCCCCAGGAAAAAAAAAAAAAGAAAUUCGCAUGUUUAAUGUGAACU: 1.34
CUCUGCACCAACAGUUUAUGGCUGAGAUGUUUUGUAAUUUCAUGAUGUUUGUAAUUUUCAUGAAAAUGUGUGAUUUUCGUUUGUGAUAUGAAAGAUCAUUAAUCAAAGAA: 0.737
UCCUUAGUUUUCAUAUGUUGGUUAUUCAUAUGUCUAUUUAUAUGUAUAUUUAUUUUUAUGUAUGUUACUAUGUAAAUAUGGUUUGCAGUUGUUUUUGUGUGGAAUCUUGU: 1.9
ACGAGGGGCCUGCCCCCCGCCCUACCGGCUUUUGGAUUCUGGGAGGGGAACUCUGCCUCCCUGCAAAUCUUGCAGCCCCUCCUGCCCAGGGCACCCCUCAAGGACUGCCC: 0.16
GAUGCUUGUGGCACACAGUUGGGUGAUGUGGGGAAAGGACACCGGGUCAGGAGUUGCAAGUUUAACUCCGUCCUCACUUGUAGCAUUGAAUGCCUCCUGUGCUGUCUAGU: 37.7
CCUAUCGAGAAGGGGCCGAAGGCGAAUGAACACAAAGCCUCGAAGCCAGUGGUUCCGGCUGAGCUCUCCUGGCUGGUCCCCCAGGACCACCAGCACUGCCGUGGGUCUCC: 0.216

Study 3
Target: TAR DNA-binding protein 43, full length, His tag (TARDBP, Homo sapiens, UniProt Q13148, residues 1-414)
Method: RNA Bind-n-Seq
Form: RNA
Medium: in vitro
Tested at: 20 nM
Setting: 6-mer, flanks averaged, single round
Together with: 150 mM KCl
Reference: input library
Direction: higher = stronger binding
Quantity: 6-mer enrichment (R)
CUGGCA: 0.832
GUACUC: 0.615
CCGAGU: 0.828
GGCGGU: 3.15
CUCGUU: 0.541
GUUCGG: 1.38
AUGGAU: 0.829
CUACCC: 0.612
UCUUUU: 0.691
ACCCCU: 0.649
AACCUC: 0.57
CGAUUA: 0.555
ACUAUG: 0.665
CUGUCA: 0.606
GUUGCU: 0.771
UCACCC: 0.645
UUCACC: 0.599
UCGGUC: 0.706

Study 4
Target: CCNA1, cyclin fold, Cln2 fusion (human)
Method: yeast growth competition, sequencing
Medium: yeast
Setting: weak parent motif
Reference: not given
Direction: higher = stronger binding
Quantity: normalised enrichment score
Parent: CDKN1A docking peptide (human); SKACRRLFGPVDS; partner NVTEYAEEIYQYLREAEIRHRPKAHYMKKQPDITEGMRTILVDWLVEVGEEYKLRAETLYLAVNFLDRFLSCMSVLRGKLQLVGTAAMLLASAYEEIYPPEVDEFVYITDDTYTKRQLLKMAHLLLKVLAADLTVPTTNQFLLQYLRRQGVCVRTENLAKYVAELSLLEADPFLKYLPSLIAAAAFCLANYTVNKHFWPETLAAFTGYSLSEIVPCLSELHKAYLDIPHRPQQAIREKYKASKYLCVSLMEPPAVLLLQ
SKACERLFGPVDS [R5E]: -0.308
SKACRRLFGPEDS [V11E]: 0.975
SKKCRRLFGPVDS [A3K]: 0.016
SKACRRLFGPIDS [V11I]: 0.523
SKACRRLFGPKDS [V11K]: 0.152
SKACRRLFHPVDS [G9H]: 0.663
SKAERRLFGPVDS [C4E]: -0.166
SKACRRLFGPCDS [V11C]: 0.538
SKACRRRFGPVDS [L7R]: 0.175
SKACRRLFGPVES [D12E]: 0.33
SKAHRRLFGPVDS [C4H]: 0.624
SKACRRLFLPVDS [G9L]: 0.634
SKAGRRLFGPVDS [C4G]: 0.135
SKACRRLFGPNDS [V11N]: 0.867
SKDCRRLFGPVDS [A3D]: -0.0557
SKACRRLFGYVDS [P10Y]: 0.132
SKACRREFGPVDS [L7E]: -0.119
SKACRRLFGTVDS [P10T]: 0.425

Study 5
Target: Sal-like protein 4, full length isoform A (SALL4, Homo sapiens, UniProt Q9UJQ4, residues 1-1053)
UniProt Q9UJQ4, sequence (whole entry, looked up): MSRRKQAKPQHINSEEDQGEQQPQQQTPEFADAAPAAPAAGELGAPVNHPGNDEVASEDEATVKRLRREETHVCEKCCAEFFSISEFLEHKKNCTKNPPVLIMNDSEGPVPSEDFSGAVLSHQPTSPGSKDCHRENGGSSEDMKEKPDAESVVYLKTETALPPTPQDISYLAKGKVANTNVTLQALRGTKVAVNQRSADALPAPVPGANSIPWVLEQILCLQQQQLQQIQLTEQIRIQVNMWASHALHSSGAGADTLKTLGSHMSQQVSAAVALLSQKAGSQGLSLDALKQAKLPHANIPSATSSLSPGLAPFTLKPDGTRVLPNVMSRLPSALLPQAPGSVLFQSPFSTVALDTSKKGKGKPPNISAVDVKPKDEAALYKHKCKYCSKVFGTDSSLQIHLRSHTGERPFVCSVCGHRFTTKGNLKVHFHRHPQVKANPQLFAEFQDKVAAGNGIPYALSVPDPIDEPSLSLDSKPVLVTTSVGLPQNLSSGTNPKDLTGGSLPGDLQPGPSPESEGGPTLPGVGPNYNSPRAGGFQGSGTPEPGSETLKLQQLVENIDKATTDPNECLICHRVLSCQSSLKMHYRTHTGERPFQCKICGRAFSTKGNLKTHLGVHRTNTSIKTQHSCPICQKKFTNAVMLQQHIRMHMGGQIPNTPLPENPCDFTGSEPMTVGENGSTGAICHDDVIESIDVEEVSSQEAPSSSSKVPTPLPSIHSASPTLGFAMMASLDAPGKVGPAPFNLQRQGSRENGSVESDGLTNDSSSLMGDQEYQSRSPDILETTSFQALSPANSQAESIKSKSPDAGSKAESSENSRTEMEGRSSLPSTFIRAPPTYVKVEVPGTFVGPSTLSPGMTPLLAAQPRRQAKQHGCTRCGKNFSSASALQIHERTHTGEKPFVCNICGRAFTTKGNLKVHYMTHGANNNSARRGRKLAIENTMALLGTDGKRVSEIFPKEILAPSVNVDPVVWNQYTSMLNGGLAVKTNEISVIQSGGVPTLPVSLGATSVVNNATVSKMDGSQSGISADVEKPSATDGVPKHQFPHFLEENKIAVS
Method: universal PBM
Form: double-stranded DNA, one strand shown
Medium: in vitro
Tested at: 600 nM
Setting: 8-mer, flanks averaged, mean of replicates
Direction: higher = stronger binding
Quantity: E-score
ATCGCGAA: -0.0532
ATCACATC: 0.0429
CGCAGGGC: -0.231
AGCTTTCC: -0.164
TATGCTAA: 0.253
GCGGGACC: -0.383
TATGTGGA: 0.258
GAGCGCAC: -0.243
CCTTCTCG: -0.219
CTGAGCAG: -0.116
GCCAAGCA: -0.184
TCTGCGCA: -0.22
CGAGACCC: -0.363
AGAACCGA: -0.167
ACATTTCT: 0.192
GGTAGGAC: -0.2
AATGTAGC: 5e-05
AGCCCGCT: -0.187
CGTTATAC: 0.148
AGGATCCT: -0.161
CCCGCCAA: -0.112
CTTAGAGA: -0.0151
ATCTTTAG: 0.078
AAGTACGG: -0.108
AATCGCGT: -0.1

Study 6
Target: Runt-related transcription factor 3, Runt domain (RUNX3, Homo sapiens, UniProt Q13761, residues 53-186)
UniProt Q13761, sequence (53-186, looked up): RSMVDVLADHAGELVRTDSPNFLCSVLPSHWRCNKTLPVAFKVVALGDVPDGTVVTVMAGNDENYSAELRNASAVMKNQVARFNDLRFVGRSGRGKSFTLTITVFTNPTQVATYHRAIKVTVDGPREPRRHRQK
Method: protein-binding microarray
Form: hairpin DNA
Medium: in vitro
Tested at: not given
Setting: whole hairpin DNA, median over replicate spots
Reference: not given
Direction: higher = stronger binding
Quantity: median fluorescence
GAGGCCTGTCGCGGCGGGCCTCCTGGCCCGCCGCGACAGGCCTCACACTC (5mC at 15 29): 5970 a.u.
CTCAGCTCTGTGGGCTGGACTCCTGTCCAGCCCACAGAGCTGAGACACTC (5mC at 6): 4280 a.u.
GAGGCCTGCGGTGGTTGGCCTCCTGGCCAACCACCGCAGGCCTCACACTC (5mC at 35): 5720 a.u.
GAGGCCTGTCGCGGCGGGCCTCCTGGCCCGCCGCGACAGGCCTCACACTC (5mC at 29): 5940 a.u.
GAGGCCCAACCGCAACGGCCTCCTGGCCGTTGCGGTTGGGCCTCACACTC (5mC at 16 28): 10400 a.u.
GAGGCCCAACCGCCACAGCCTCCTGGCTGTGGCGGTTGGGCCTCACACTC (5mC at 14): 6250 a.u.
GAGGCCTGTTGCGGTGGGCCTCCTGGCCCACCGCAACAGGCCTCACACTC: 5800 a.u.
CTCAGGTCTGTGGGCTGGACTCCTGTCCAGCCCACAGACCTGAGACACTC: 4380 a.u.
GAGGCCCGTCGCGGTTGGCCTCCTGGCCAACCGCGACGGGCCTCACACTC (5mC at 37): 6410 a.u.

Study 7
Target: Histone acetyltransferase KAT6A, both winged helices, GST fusion (KAT6A, Homo sapiens, UniProt Q92794, residues 1-181)
Method: protein binding microarray
Form: double-stranded DNA, one strand shown
Medium: in vitro
Tested at: not given
Setting: 8-mer, flanks averaged, mean of 2 arrays, mostly near background
Reference: not given
Direction: higher = stronger binding
Quantity: E-score
Residues (chain): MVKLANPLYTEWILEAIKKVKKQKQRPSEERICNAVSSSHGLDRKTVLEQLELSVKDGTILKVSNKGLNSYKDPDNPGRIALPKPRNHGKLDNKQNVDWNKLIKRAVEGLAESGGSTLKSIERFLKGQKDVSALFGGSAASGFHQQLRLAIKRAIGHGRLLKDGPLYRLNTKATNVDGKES
CTTCAACC: -0.0838
ACGAAAGT: -0.0512
AATACGTG: -0.0441
CCGCCAGG: 0.133
TGCATACA: -0.0708
AGGCCAGA: -0.145
CGAGGATA: -0.255
AGCATACT: -0.044
AGTCCGAC: 0.1
ACCTTATA: -0.165
GATTGAGA: -0.127
AGACAAAG: -0.085
CCGAAAAG: -0.102
CCGGTCGA: 0.135
ATTCATTC: -0.0614
AATGGAAG: -0.0115
CCAAATCA: -0.0369
GTGTGATA: 0.0414

Study 8
Target: Interferon regulatory factor 5, full length, phosphomimetic (IRF5, Homo sapiens, UniProt Q13568-2, residues 1-514, S451D/S453D/S456D/S462D)
Method: protein-binding microarray
Form: double-stranded DNA, one strand shown
Medium: in vitro
Tested at: 940 nM top
Setting: 60-bp whole probe
Together with: salmon DNA 0.4 mg/ml
Reference: random background probes
Direction: higher = stronger binding
Quantity: fitted relative affinity
Constant ends, left off below: GCCTAGCAC … GTCTTGATTCGCTTGACGCTGCTG
GACGGTCTCCTTCTCCCGACGTGCTAG: 0.869 z-score
GACGACTTCAGTTTCGAGACGTGCTAG: 4.51 z-score
GACGATCTCAGTCTCCAGACGTGCTAG: 0.0556 z-score
TTATGTATCGGACTGGGTTAGTGCTAG: 1.11 z-score
CTAGGTATCCTTCTCCTTTAGTGCTAG: 0.542 z-score
GACGGACTGCTTCTCCTGAGGTGCTAG: -0.0918 z-score
TTCGGTATCGGGTTTCGGTTAGTGCTA: 8.65 z-score
GACGCTATCGGGACTGGAGACGTGCTA: 0.187 z-score
GTGTGTTTGAGTCTTCTCCTGTGCTAG: -0.0371 z-score
TTAGGTCTCAGTCTCGGTTAGTGCTAG: 3.79 z-score
GGCGGACTGCTACTGCTGACGTGCTAG: -1.04 z-score
GTTGTTTTAAATTCTAATTAGTGCTAG: 0.136 z-score
TCATGTTTCTAATATTCTACTGTGCTA: 0.934 z-score
TTAGATTTCAGTCTTGATTAGTGCTAG: 1.06 z-score
GACGATTTCAAACTGGAGACGTGCTAG: 0.0169 z-score
TTAGGAGTGGGACTGGGTTAGTGCTAG: -0.0335 z-score
